# Experimental data of several laboratories.
# Every numbered part comes from another study and shows a few of its results, in no order.

# Series 1 — method: protein-binding microarray; molecule type: double-stranded DNA, one strand shown; matrix: in vitro; concentration: 2540 nM top; setting: 60-bp whole probe; added: salmon DNA 0.4 mg/ml; relative to: random background probes; direction: higher = stronger binding; constant ends, left off below: GCCTAGCAC … GTCTTGATTCGCTTGACGCTGCTG
# Target: Interferon regulatory factor 3, full length, phosphomimetic (IRF3, Homo sapiens, UniProt Q14653, residues 1-427, S386D/S396D/S398D/S402D/T404D/S405D)
# Residues (chain): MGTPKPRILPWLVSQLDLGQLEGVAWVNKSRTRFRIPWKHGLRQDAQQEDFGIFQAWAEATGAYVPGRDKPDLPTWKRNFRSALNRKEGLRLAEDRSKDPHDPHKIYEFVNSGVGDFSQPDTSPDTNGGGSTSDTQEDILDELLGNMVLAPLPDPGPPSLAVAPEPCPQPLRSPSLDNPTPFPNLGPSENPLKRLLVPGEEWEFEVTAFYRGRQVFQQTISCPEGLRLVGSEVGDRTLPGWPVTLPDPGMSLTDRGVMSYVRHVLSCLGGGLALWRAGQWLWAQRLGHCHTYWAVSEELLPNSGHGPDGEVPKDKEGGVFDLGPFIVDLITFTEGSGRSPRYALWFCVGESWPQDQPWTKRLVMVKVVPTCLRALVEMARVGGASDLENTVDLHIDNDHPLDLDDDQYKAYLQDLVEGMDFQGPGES
Sequence,fitted relative affinity [z-score]
GACGATATCAGTTTCGAGAGGTGCTAG,2.78
GACGGTTTCGTTCTCCTGACGTGCTAG,8
CACGAACTGGGGTTTCGAGACGTGCTA,0.291
TACGATATCAGTTTCGAGACGTGCTAG,3.48
TTTGGTTTCGGTTTCGGTTAGTGCTAG,12.1
TTTGGTCTCCTACTGCTTTAGTGCTAG,1.15

# Series 2 — method: protein binding microarray; molecule type: double-stranded DNA, one strand shown; matrix: in vitro; concentration: not given; relative to: not given; direction: higher = stronger binding
# Target: Histone acetyltransferase KAT6A, winged helix 2, GST fusion (KAT6A, Homo sapiens, UniProt Q92794, residues 85-181)
# Setting: 8-mer, flanks averaged, mean of 2 arrays, mostly near background
# Residues (chain): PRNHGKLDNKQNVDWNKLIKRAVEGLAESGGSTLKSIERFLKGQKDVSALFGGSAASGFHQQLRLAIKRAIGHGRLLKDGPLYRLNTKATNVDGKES
Sequence,E-score
AAGTTATG,-0.112
AAGCTTCA,-0.0558
CCTTAAAA,-0.0325
ACTTTGAT,-0.0143
CGTACAGA,-0.11

# Series 3 — method: RNA Bind-n-Seq; molecule type: RNA; matrix: in vitro; concentration: 200 nM; setting: whole 134-nt RNA, ends assumed; added: 150 mM KCl; relative to: input library; direction: higher = stronger binding
# Target: Ras GTPase-activating protein-binding protein 1, full length (G3BP1, Homo sapiens, UniProt Q13283)
# Sequence of UniProt Q13283 (whole entry, looked up): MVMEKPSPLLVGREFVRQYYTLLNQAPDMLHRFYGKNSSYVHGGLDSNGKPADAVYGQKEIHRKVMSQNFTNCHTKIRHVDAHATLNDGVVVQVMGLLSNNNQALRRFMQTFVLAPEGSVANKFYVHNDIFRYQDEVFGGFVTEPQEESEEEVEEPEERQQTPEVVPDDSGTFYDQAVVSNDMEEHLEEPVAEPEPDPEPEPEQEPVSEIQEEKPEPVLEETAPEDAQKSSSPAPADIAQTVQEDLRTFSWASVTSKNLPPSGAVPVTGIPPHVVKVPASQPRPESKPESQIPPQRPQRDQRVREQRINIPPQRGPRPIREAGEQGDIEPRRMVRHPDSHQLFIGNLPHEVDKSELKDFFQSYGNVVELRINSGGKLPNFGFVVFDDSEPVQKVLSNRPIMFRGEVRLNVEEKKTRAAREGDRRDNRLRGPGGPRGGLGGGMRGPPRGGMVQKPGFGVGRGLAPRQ
# Constant ends, left off below: GGGAGUUCUACAGUCCGACGAUC … UGGAAUUCUCGGGUGUCAAGG
Sequence,log2 enrichment
CAAGUCCUGUGCUACACAUCGUAUGUACCGAAUCGGAGGAAAAAAAGGUUUUUGGAAAGUAUUAUGUUACGCCGUUCGGAUCUGCACUUC,-1.15
AGUCCUGUGCUACACAUCGUAUGUACCGAAUCAAACCCAAAUUUUUUUAAAUUUAAAAAAGUAUUAUGUUACGCCGUUCGGAUCUGCACU,-0.418
UCCUGUGCUACACAUCGUAUGUACCGAAUCAAAUUUUUUUAAACCCAAAUUUUUUUAAAAAAGUAUUAUGUUACGCCGUUCGGAUCUGCA,0.0216
CAAGUCCUGUGCUACACAUCGUAUGUACCGAAUCGGGUGGGAGGGAAAAAAAGGGAAAGUAUUAUGUUACGCCGUUCGGAUCUGCACUUC,0.229
CAAGUCCUGUGCUACACAUCGUAUGUACCGAAUCGGGCCCGGGCCCGGCCCGGGGAAAGUAUUAUGUUACGCCGUUCGGAUCUGCACUUC,-0.994
CCUCAAGUCCUGUGCUACACAUCGUAUGUACCGAAUCGGGGUGGGUGGUGGGAAAGUAUUAUGUUACGCCGUUCGGAUCUGCACUUCCAG,0.924
CAAGUCCUGUGCUACACAUCGUAUGUACCGAAUCGGCCCCGGGGCCCCGGCCCCGGAAAGUAUUAUGUUACGCCGUUCGGAUCUGCACUU,-1.05

# Mixed results
Molecule,target,assay,system,setting,scale,measurement,value
"PhoQ, residues 284 288 289 292 302 303 TLSLKA","PhoP, residues 12 14 15 18 19 SGWQI (Escherichia coli, UniProt P23836)","Sort-seq, measured: YFP reporter",E. coli,"PhoQ-PhoP variant library, added: 10 µM Mg2+","relative to: high Mg2+ state, higher = stronger signaling",fold induction,14.4

# A few entries again (series 2):
Sequence,E-score
AAGTTATG,-0.112
CCTTAAAA,-0.0325
